Published values of several laboratories.
Every numbered part comes from another study and shows a few of its results, in no order.
Sequence of UniProt P51817 (whole entry, looked up): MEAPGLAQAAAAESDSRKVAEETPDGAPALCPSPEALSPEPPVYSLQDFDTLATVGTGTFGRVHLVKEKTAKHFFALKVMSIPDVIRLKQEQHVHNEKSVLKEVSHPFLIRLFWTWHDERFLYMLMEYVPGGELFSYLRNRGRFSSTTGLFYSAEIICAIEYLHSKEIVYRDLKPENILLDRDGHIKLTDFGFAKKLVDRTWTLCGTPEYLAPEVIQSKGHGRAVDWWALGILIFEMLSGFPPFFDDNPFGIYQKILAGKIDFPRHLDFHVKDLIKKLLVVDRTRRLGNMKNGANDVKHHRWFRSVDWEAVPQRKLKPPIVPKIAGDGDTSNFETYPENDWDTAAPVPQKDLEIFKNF

Sample 1 — technique: RNA Bind-n-Seq; molecule type: RNA; medium: in vitro; concentration: 200 nM; notes: whole 134-nt RNA, ends assumed; with: 150 mM LiCl; reference: input library; reading: higher = stronger binding; library: 7-deaza-guanosine replaces G
Target: Fragile X messenger ribonucleoprotein 1, C-terminal low-complexity region (Fmr1, Mus musculus, UniProt P35922)
The log2 enrichment of `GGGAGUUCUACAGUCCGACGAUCCAAGUCCUGUGCUACACAUCGUAUGUACCGAAUCGGGGAAAAGGAAAAGGAAAAGGAAAGUAUUAUGUUACGCCGUUCGGAUCUGCACUUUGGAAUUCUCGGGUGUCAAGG` is reported as -1.31.
`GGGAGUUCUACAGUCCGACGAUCAGUCCUGUGCUACACAUCGUAUGUACCGAAUCGGGCCCCGGGCCCCGGGCCCCGGGGAAAGUAUUAUGUUACGCCGUUCGGAUCUGCACUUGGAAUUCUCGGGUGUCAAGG` gave a log2 enrichment of -3.2.
The log2 enrichment of `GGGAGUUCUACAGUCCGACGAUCCUCAAGUCCUGUGCUACACAUCGUAUGUACCGAAUCGGAAGGGGAAGGAAGGGGAAAGUAUUAUGUUACGCCGUUCGGAUCUGCACUUCCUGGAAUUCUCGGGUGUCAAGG` is reported as 0.0295.
The log2 enrichment of `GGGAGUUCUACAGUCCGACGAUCUCCUGUGCUACACAUCGUAUGUACCGAAUCGGUUUUUUUGGAAAAAAAGGAAAAAAAGGAAAGUAUUAUGUUACGCCGUUCGGAUCUGCAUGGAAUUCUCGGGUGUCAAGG` is reported as -2.42.
`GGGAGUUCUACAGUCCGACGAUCUUGGCUACAAUGCAGAGACACAGAAACUACUAUGCAAGAAUGGGGAAACGCUGCUAGGAGCCGUGAACUUCUUUGUCUCUAGCAUCAACAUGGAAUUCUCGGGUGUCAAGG` gave a log2 enrichment of -1.05.
`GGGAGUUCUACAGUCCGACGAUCGUCCUGUGCUACACAUCGUAUGUACCGAAUCAAAUUUUUAAAUUUAAACCCCCCCAAAAAAGUAUUAUGUUACGCCGUUCGGAUCUGCACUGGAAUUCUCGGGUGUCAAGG` gave a log2 enrichment of 1.71.
The log2 enrichment of `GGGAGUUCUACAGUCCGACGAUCUGGAGCUACAGAUGGUGUCCUUCCUGCCAGGUGUGUGUGGAGGCCAGUAUGAAGCUGAAAAAGCAGGUGACAGUGUGUGGGGCUGCCAUCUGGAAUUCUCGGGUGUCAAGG` is reported as 0.627.
For `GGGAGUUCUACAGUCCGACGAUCUCCUGUGCUACACAUCGUAUGUACCGAAUCGGGUUUUUUGGUUUUUUGGGGUUUUUUGGAAAGUAUUAUGUUACGCCGUUCGGAUCUGCAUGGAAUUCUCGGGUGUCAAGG`, the log2 enrichment was -0.304.

Sample 2 — technique: RNAcompete; molecule type: RNA; medium: in vitro; concentration: 20 nM; notes: 7-mer, probes averaged, single round; reference: mean of 7-mers; reading: higher = stronger binding
Target: PABPC1L2, full length, GST fusion (mouse, UniProt A0ABA7IW68)
Residues (chain): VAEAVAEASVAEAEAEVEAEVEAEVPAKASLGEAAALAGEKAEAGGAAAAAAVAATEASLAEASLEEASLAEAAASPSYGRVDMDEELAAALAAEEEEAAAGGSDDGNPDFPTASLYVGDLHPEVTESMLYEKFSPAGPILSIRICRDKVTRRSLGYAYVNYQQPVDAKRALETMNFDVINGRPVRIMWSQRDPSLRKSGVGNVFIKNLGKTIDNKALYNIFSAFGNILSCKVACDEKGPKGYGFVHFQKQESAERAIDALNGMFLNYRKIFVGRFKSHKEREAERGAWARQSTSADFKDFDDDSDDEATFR
With `CACUUAC` the 7-mer Z-score was -0.164.
`CAGACGA` has a 7-mer Z-score of 0.0895.
`AUUACUC` gave a 7-mer Z-score of -0.258.
`AUUAGUC` gave a 7-mer Z-score of -0.267.
With `AACUGUG` the 7-mer Z-score was 0.0859.
`GACGCGU` gave a 7-mer Z-score of -0.206.
`CUACUUU` gave a 7-mer Z-score of -0.22.
With `GACGCAG` the 7-mer Z-score was 0.0243.

Other studies, line by line
Rela Rel homology region: Transcription factor p65, Rel homology region (Rela, Mus musculus, UniProt Q04207, residues 1-314)
Sequence of UniProt Q04207 (1-314, looked up): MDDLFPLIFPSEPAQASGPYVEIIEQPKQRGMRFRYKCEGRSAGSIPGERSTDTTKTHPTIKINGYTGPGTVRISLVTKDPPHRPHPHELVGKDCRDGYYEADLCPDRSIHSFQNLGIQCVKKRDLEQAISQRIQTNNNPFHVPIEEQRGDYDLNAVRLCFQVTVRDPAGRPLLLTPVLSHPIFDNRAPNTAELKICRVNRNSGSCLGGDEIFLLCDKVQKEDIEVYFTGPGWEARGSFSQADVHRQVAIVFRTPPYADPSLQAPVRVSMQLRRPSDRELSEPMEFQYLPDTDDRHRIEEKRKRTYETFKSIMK
The dissociation half-life of `GGGGAATTTT` is reported as 7 s (Rela Rel homology region; surface plasmon resonance; double-stranded DNA, one strand shown, in vitro; 1 nM to 1 µM, 10-bp κB site, 1:1 kinetic fit, 10 °C; higher = slower dissociation).
For `Cc1nc(Cc2cccc(C(F)(F)F)c2)sc1-c1ccc(C(N)=O)nc1`, the remaining binding was 100% (Receptor-type tyrosine-protein kinase FLT3 (FLT3, Homo sapiens, UniProt P36888, D835H); cell-free assay, competition with immobilised ligand; 1 µM).
The dissociation half-life of `GGAATTTCTT` is reported as 3 s (Rela Rel homology region; surface plasmon resonance; double-stranded DNA, one strand shown, in vitro; 1 nM to 1 µM, 10-bp κB site, 1:1 kinetic fit, 10 °C; higher = slower dissociation).
With `CCCOc1ccc([C@@H]2[C@@H](C(=O)O)[C@H](c3ccc4c(c3)OCO4)CN2CC(=O)Nc2c(CC)cccc2CC)cc1` the remaining binding was 89% (cAMP-dependent protein kinase catalytic subunit PRKX (PRKX, Homo sapiens, UniProt P51817); cell-free assay, competition with immobilised ligand; 1 µM).
The logD of `CCOC(=O)[C@@H]1CSCC(=O)N[C@@H](CC)C(=O)N(C)[C@@H](C)C(=O)N[C@H](CC(C)C)C(=O)N2CCC[C@@H]2C(=O)N(CC)CC(=O)N[C@H](CC(C)C)C(=O)N(C)[C@@H](C)C(=O)N[C@@H](CC(C)C)C(=O)N1C` is reported as 0.886 (hydrocarbon/water).

Repeated from above (sample 1):
The log2 enrichment of `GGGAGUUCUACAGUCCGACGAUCUCCUGUGCUACACAUCGUAUGUACCGAAUCGGUUUUUUUGGAAAAAAAGGAAAAAAAGGAAAGUAUUAUGUUACGCCGUUCGGAUCUGCAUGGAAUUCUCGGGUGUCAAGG` is reported as -2.42.
`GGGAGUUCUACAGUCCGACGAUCUUGGCUACAAUGCAGAGACACAGAAACUACUAUGCAAGAAUGGGGAAACGCUGCUAGGAGCCGUGAACUUCUUUGUCUCUAGCAUCAACAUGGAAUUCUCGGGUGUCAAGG` gave a log2 enrichment of -1.05.
